{"data": "Experimental data of several laboratories", "note": "Numbered parts are unrelated; each lists some results of a single study.", "chain of UniProt Q13976 (whole entry, looked up)": "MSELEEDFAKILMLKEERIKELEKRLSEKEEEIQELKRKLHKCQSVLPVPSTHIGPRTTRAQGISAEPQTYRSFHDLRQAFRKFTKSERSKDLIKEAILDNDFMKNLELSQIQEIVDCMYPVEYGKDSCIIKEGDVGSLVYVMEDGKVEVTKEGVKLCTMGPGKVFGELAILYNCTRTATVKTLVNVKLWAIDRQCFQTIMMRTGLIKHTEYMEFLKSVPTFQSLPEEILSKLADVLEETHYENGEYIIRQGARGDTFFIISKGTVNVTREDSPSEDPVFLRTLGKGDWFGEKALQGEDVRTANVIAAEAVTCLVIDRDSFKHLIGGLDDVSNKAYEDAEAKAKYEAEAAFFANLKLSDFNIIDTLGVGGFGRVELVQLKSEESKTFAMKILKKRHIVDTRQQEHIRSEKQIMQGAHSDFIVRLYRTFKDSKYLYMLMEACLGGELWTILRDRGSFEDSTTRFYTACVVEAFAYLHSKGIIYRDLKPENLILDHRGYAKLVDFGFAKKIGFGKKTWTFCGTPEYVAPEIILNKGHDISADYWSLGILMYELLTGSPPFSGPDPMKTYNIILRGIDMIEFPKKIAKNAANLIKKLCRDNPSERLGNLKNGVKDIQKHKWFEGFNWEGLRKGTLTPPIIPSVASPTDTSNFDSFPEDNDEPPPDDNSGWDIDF", "chain of UniProt Q13705 (whole entry, looked up)": "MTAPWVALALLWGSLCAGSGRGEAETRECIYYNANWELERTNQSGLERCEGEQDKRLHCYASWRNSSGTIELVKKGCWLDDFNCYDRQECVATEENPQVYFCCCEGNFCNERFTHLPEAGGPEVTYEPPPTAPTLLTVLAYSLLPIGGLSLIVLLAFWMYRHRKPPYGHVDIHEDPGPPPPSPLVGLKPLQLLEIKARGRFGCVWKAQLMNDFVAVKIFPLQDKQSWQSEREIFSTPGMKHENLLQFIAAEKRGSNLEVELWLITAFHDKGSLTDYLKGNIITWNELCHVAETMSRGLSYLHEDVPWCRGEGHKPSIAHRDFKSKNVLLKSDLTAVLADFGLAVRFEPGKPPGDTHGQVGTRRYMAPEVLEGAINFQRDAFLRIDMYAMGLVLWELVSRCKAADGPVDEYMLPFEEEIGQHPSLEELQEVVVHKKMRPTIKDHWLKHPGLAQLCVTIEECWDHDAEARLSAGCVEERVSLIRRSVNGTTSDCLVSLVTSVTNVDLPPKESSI", "chain of UniProt Q9Y2K2 (whole entry, looked up)": "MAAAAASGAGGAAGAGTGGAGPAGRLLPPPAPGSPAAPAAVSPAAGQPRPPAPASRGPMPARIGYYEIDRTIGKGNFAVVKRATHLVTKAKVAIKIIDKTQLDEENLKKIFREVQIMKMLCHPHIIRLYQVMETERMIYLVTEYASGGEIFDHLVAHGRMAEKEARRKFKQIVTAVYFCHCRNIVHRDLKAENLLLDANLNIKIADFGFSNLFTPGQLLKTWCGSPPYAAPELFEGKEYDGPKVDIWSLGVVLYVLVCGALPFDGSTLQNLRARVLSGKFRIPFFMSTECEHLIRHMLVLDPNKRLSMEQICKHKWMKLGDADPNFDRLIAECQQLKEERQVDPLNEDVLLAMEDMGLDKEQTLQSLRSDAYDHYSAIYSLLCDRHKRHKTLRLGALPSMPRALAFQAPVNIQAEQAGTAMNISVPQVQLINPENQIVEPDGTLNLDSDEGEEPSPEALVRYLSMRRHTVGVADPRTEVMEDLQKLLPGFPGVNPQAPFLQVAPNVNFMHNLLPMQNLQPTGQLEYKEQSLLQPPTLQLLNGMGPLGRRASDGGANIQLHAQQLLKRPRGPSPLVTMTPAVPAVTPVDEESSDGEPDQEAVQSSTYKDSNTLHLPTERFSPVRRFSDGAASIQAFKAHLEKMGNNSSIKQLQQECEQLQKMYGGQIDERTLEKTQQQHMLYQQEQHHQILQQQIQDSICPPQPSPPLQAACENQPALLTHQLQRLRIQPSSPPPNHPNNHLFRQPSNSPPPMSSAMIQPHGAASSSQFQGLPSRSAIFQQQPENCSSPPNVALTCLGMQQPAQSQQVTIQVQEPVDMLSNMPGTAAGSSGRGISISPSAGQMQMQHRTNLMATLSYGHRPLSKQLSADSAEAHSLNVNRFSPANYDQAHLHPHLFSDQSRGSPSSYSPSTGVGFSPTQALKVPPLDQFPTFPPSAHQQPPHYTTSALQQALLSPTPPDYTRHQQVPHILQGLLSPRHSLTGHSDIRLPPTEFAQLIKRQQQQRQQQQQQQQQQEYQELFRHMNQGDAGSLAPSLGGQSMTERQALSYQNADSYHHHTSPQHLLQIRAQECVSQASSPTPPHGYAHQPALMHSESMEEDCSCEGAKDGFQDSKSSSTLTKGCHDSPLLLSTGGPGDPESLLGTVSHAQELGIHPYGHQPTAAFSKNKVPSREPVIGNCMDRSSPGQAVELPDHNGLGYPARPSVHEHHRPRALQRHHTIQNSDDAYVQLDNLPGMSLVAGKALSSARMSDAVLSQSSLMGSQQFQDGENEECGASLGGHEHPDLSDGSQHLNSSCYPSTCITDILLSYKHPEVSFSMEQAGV", "chain of UniProt P51812 (whole entry, looked up)": "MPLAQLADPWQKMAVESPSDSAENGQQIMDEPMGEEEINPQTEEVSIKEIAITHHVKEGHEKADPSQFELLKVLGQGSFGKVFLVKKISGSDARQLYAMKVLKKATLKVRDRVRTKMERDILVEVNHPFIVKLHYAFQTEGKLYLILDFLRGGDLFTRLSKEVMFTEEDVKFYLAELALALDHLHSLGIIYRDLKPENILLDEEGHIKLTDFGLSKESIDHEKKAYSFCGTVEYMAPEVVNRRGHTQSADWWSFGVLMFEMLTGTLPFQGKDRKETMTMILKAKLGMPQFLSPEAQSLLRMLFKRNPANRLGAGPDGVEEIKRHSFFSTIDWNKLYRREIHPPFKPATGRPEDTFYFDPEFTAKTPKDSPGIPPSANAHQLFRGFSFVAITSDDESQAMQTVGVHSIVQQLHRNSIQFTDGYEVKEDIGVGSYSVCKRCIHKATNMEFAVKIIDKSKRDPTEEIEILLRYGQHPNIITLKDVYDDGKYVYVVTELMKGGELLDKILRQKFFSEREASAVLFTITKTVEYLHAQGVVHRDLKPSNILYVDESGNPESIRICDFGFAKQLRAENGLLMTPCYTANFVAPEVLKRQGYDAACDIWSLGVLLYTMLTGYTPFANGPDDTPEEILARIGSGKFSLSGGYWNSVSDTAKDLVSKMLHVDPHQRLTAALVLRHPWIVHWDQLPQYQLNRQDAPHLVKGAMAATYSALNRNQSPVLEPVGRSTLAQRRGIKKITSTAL", "chain of UniProt P09619 (whole entry, looked up)": "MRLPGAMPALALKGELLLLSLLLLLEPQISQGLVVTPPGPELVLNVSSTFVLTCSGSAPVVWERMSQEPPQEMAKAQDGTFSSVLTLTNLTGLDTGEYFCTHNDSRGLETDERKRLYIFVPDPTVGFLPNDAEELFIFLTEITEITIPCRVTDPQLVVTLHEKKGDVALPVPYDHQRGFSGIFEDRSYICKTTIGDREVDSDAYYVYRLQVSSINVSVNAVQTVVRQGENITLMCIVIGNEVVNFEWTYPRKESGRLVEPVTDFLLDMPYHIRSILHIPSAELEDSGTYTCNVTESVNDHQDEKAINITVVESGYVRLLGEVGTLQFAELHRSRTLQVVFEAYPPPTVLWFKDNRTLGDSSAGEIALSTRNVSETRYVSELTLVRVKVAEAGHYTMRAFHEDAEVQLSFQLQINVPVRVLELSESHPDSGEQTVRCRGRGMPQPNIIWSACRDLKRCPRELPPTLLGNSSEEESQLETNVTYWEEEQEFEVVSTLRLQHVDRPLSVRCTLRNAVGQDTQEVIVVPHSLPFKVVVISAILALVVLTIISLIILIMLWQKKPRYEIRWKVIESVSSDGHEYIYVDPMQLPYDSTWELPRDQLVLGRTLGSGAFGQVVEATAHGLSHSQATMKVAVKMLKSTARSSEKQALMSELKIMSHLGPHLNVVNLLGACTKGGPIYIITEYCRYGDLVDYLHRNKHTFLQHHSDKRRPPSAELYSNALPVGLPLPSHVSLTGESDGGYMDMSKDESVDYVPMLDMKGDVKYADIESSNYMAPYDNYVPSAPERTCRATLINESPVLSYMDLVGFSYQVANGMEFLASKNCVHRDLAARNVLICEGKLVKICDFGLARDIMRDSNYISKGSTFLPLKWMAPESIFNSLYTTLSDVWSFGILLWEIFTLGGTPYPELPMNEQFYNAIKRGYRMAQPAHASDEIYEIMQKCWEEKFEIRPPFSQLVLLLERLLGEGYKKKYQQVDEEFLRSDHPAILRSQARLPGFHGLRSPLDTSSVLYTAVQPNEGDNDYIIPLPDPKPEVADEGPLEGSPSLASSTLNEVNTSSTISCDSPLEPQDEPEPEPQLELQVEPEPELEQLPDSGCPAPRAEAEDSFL"}
{"data": "Study 1", "target": "Transcriptional repressor CTCF (CTCF, Homo sapiens, UniProt P49711, residues 1-727, full length assumed)", "technique": "protein-binding microarray", "molecule type": "double-stranded DNA, one strand shown", "sample": "in vitro", "tested at": "not given", "setting": "k-mer, scored over probes, only values ≥0.25", "direction": "higher = stronger binding", "chain of UniProt P49711 (whole entry, looked up)": "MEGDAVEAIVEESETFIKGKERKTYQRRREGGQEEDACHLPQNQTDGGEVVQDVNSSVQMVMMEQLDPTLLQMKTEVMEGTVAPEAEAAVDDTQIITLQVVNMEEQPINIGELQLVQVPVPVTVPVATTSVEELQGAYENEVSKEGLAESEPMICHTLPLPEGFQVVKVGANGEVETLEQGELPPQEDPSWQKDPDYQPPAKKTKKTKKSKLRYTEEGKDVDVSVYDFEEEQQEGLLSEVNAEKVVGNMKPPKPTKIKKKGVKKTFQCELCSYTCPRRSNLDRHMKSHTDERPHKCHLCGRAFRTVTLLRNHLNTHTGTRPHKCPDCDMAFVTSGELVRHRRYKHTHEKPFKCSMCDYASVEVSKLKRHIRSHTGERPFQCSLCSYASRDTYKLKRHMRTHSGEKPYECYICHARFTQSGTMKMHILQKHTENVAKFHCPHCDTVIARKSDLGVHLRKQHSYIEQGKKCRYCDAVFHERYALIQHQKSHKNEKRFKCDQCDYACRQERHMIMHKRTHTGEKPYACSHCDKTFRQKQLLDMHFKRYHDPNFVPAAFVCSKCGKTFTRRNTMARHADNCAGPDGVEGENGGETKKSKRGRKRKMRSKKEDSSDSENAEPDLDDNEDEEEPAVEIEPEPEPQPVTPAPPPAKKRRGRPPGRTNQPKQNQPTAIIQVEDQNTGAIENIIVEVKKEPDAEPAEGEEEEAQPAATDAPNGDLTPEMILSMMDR"}
{"Oligonucleotide": "ATAGATAA", "E-score": 0.31}
{"Oligonucleotide": "ATAGTAGA", "E-score": 0.286}
{"Oligonucleotide": "ATTACTCG", "E-score": 0.25}
{"Oligonucleotide": "GATCATTA", "E-score": 0.265}
{"Oligonucleotide": "ATATTGTG", "E-score": 0.28}
{"Oligonucleotide": "CAACATTA", "E-score": 0.265}
{"Oligonucleotide": "CGGTTATA", "E-score": 0.272}
{"Oligonucleotide": "ATATTATC", "E-score": 0.263}
{"data": "Study 2", "SMILES": "Cc1ccc(NC(=O)c2ccc(CN3CCN(C)CC3)cc2)cc1Nc1nccc(-c2cccnc2)n1", "observed": "enzyme activity", "action": "inhibitor", "tested at": "0.5 µM", "baseline": "control"}
{"target": "PKN1 (Homo sapiens, UniProt Q16512)", "remaining activity": "98.9%"}
{"target": "MATK (Homo sapiens, UniProt P42679)", "remaining activity": "94.9%"}
{"target": "NEK11 (Homo sapiens, UniProt Q8NG66)", "remaining activity": "110%"}
{"target": "AKT1 (Homo sapiens, UniProt P31749)", "remaining activity": "93.1%"}
{"data": "Study 3", "SMILES": "CS(=O)(=O)c1cc(C2(NC(=O)c3cncc4c3cnn4-c3ccc(F)cc3)CC2)ccn1", "observed": "cell-free assay", "technique": "competition with immobilised ligand", "tested at": "1 µM"}
{"target": "LCK (Homo sapiens, UniProt P06239)", "remaining binding [%]": 100}
{"target": "SIK3 (Homo sapiens, UniProt Q9Y2K2)", "remaining binding [%]": 81}
{"target": "PHKG2 (Homo sapiens, UniProt P15735)", "remaining binding [%]": 100}
{"target": "HUNK (Homo sapiens, UniProt P57058)", "remaining binding [%]": 100}
{"target": "MAP2K6 (Homo sapiens, UniProt P52564)", "remaining binding [%]": 74}
{"target": "FLT3 (Homo sapiens, UniProt P36888)", "remaining binding [%]": 100}
{"target": "FLT3 (Homo sapiens, UniProt P36888, D835H)", "remaining binding [%]": 100}
{"target": "PDGFRB (Homo sapiens, UniProt P09619)", "remaining binding [%]": 93}
{"target": "MAP4K4 (Homo sapiens, UniProt O95819)", "remaining binding [%]": 88}
{"target": "PRKG1 (Homo sapiens, UniProt Q13976)", "remaining binding [%]": 100}
{"target": "ACVR2B (Homo sapiens, UniProt Q13705)", "remaining binding [%]": 100}
{"target": "Ribosomal protein S6 kinase alpha-3, N-terminal kinase domain (RPS6KA3, Homo sapiens, UniProt P51812)", "remaining binding [%]": 99}
{"target": "TBK1 (Homo sapiens, UniProt Q9UHD2)", "remaining binding [%]": 94}
{"data": "Study 4", "cell line": "A-375", "tested at": "100 µM", "time": "18 h"}
{"Compound": "CC(=O)OCC(=O)[C@@]1(O)CC[C@H]2[C@@H]3CCC4=CC(=O)C=C[C@]4(C)[C@H]3[C@@H](O)C[C@@]21C", "viability [%]": 97.6}
{"Compound": "C/C=C1\\[C@H]2C=C(C)C[C@]1(N)c1ccc(=O)[nH]c1C2", "viability [%]": 104}
{"Compound": "Cc1cc(-n2c(=O)[nH]c(=O)n(C)c2=O)ccc1Oc1ccc(SC(F)(F)F)cc1", "viability [%]": 25.6}
{"Compound": "Nc1ncnc2c1ncn2[C@@H]1O[C@H](CO)[C@@H](O)[C@@H]1O", "viability [%]": 92.9}
{"note": "Repeated from above (study 2):"}
{"target": "MATK (Homo sapiens, UniProt P42679)", "remaining activity": "94.9%"}
{"target": "NEK11 (Homo sapiens, UniProt Q8NG66)", "remaining activity": "110%"}
{"target": "AKT1 (Homo sapiens, UniProt P31749)", "remaining activity": "93.1%"}
